Assay results pooled from the literature.
Chain of UniProt Q8IVH8 (whole entry, looked up): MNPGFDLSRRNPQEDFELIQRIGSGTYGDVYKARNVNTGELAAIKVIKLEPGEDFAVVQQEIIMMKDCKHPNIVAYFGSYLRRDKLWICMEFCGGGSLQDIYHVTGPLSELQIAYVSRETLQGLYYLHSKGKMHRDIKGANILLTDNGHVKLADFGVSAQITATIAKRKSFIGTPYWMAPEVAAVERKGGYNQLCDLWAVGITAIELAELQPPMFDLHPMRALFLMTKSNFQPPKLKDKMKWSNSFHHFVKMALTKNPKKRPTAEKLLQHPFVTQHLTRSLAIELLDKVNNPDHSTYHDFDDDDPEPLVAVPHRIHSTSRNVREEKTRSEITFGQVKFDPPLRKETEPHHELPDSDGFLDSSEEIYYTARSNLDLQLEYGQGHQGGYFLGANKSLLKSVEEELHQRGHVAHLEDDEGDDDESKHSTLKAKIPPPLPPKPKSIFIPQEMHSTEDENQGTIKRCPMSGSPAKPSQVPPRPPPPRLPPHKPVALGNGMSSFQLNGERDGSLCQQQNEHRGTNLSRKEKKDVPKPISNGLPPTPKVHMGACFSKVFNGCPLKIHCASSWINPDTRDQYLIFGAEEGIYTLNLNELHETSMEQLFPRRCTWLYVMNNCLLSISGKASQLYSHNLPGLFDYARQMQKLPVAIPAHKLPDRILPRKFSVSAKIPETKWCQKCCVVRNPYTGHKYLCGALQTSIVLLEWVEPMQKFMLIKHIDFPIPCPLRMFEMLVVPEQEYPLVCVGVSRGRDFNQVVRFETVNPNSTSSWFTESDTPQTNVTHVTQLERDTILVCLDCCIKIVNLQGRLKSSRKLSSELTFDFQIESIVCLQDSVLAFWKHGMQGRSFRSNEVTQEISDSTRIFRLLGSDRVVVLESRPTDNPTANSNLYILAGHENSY
Chain of UniProt Q2M2I8 (whole entry, looked up): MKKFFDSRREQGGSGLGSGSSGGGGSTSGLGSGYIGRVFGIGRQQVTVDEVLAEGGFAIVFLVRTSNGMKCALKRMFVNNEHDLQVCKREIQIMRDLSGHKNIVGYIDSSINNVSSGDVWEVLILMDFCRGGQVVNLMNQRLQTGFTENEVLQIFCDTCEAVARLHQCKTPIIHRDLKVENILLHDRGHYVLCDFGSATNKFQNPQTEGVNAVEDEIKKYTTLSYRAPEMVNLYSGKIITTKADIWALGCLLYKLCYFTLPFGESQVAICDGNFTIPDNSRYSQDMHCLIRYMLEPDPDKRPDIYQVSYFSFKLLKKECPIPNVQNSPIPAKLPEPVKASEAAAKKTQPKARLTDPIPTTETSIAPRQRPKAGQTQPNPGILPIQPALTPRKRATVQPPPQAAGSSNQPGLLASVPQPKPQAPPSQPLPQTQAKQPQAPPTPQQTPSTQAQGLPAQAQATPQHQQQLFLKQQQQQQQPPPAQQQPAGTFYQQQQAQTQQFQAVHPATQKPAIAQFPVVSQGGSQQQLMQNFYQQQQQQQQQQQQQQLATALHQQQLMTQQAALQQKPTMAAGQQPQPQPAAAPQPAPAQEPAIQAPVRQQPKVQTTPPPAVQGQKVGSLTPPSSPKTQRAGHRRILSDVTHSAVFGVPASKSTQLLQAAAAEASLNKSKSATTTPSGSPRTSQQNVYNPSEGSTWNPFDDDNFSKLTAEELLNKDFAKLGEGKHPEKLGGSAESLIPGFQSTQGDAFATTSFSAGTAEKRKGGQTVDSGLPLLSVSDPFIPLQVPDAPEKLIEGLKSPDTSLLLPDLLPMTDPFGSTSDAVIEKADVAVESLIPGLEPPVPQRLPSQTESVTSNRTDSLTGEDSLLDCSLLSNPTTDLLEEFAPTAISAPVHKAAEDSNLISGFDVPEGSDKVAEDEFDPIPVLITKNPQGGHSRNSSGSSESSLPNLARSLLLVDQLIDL
Chain of UniProt Q00526 (whole entry, looked up): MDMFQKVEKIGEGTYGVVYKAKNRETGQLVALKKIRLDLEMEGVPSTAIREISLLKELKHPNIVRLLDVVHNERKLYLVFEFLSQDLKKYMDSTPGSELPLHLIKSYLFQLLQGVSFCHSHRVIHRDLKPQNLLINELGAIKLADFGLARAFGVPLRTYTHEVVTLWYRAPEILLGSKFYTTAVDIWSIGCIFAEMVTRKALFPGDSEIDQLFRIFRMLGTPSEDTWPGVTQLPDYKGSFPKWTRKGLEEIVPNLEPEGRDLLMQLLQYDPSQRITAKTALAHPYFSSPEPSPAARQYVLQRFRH
Chain of UniProt Q9H2K8 (whole entry, looked up): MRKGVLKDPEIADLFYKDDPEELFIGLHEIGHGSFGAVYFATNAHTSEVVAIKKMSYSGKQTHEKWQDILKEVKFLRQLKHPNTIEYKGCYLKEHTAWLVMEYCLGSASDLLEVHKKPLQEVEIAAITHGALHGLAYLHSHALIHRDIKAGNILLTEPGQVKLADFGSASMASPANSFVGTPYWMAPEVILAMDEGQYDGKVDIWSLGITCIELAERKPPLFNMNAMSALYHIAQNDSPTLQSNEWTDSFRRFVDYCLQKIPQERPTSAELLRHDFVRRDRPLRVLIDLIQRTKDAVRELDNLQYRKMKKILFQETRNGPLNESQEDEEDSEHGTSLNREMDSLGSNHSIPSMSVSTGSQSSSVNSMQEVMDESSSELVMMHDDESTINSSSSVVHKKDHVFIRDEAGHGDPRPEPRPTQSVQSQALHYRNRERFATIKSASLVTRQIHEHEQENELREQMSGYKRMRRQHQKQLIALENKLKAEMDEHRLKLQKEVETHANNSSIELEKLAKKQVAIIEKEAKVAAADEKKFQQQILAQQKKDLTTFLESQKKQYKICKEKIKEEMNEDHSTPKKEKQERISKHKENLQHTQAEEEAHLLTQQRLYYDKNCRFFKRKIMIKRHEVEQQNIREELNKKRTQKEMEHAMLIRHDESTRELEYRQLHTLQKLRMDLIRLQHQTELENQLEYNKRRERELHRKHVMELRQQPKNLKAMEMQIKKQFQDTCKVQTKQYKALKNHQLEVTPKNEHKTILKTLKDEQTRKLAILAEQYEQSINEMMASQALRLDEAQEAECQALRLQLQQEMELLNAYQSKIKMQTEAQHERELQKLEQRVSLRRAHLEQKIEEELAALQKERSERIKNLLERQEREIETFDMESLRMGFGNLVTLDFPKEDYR

SMILES | target or system | test | test system | conditions | endpoint | result
NC1=CC2=NCCc3c[nH]c(c32)C1=O | Babesia duncani | parasite growth, SYBR Green | – | 60 h, blood stage | IC50 | 342 nM
O=C(NNc1cccc(Cl)c1)c1nnc(C23CC4CC(CC(C4)C2)C3)o1 | Pyricularia grisea | microbial growth | – | 50 µg/mL | inhibition | 54.8%
C[N+]1=C2C=C(N)C(=O)c3[nH]cc(c32)CC1 | Babesia duncani | parasite growth, SYBR Green | – | 60 h, blood stage | IC50 | 3400 nM
COc1ncccc1-c1cnn2ccc(N3CCN(C(=O)OC(C)C)CC3)nc12 | AAK1 (Homo sapiens, UniProt Q2M2I8) | binding, competition with immobilised ligand | – | 1 µM | remaining binding | 2.1%
O=C(NCCc1ncc(C(F)(F)F)cc1Cl)c1ccccc1C(F)(F)F | Pyricularia grisea | microbial growth | – | 50 µg/mL | inhibition | 23.7%
OC(Cn1cncn1)(Cn1cncn1)c1ccc(F)cc1F | Trichophyton mentagrophytes | microbial growth, broth dilution | ATCC9533 | – | MIC | 16 µg/mL
COc1c(N2CC3CCCNC3C2)c(F)cc2c(=O)c(C(=O)OCc3cnc([N+](=O)[O-])s3)cn(C3CC3)c12 (stereo not shown) | Mycobacteroides abscessus | microbial growth | ATCC19977 | – | MIC | 1 µM
Nc1ncc(-c2nc(N3CCOCC3)nc(N3CCOCC3)n2)c(C(F)F)n1 | MAP4K3 (Homo sapiens, UniProt Q8IVH8) | binding, competition with immobilised ligand | – | 10 µM | remaining binding | 87%
[2H]c1c([2H])c([C@]2([2H])CCCN2C(=O)C(C)(C)Oc2ccc3cn[nH]c3c2)c([2H])c([2H])c1C([2H])([2H])[2H] | TAOK3 (Homo sapiens, UniProt Q9H2K8) | binding, competition with immobilised ligand | – | 1 µM | remaining binding | 100%
CC(C)(C)C(O)(CCc1ccc(Cl)cc1)Cn1cncn1 (stereo not shown) | Fusarium graminearum | microbial growth | – | 200 µg/mL | inhibition | 100%
Cc1nn(C)cc1-c1nc2c(N3CCN(Cc4ccc(Cl)cc4)CC3)c(Cl)cnc2[nH]1 | CDK3 (Homo sapiens, UniProt Q00526) | binding, competition with immobilised ligand | – | 1 µM | remaining binding | 95%
COC(CNC1=CC2=NCCc3c[nH]c(c32)C1=O)c1c[nH]c2ccccc12 (stereo not shown) | Babesia duncani | parasite growth, SYBR Green | – | 60 h, blood stage | IC50 | 696 nM
O=C(NNc1cccc(Cl)c1)c1nnc(CC23CC4CC(CC(C4)C2)C3)o1 | Pyricularia grisea | microbial growth | – | 50 µg/mL | inhibition | 100%

For quick reference, copied from above:
SMILES | target or system | test | test system | conditions | endpoint | result
Cc1nn(C)cc1-c1nc2c(N3CCN(Cc4ccc(Cl)cc4)CC3)c(Cl)cnc2[nH]1 | CDK3 (Homo sapiens, UniProt Q00526) | binding, competition with immobilised ligand | – | 1 µM | remaining binding | 95%
